{"data": "Literature values that unrelated publications cite", "CBP TAZ1 domain": "CBP TAZ1 domain (Mus musculus, UniProt P45481)", "B1": "CCL1; sequence looked up; chain KSMQVPFSRCCFSFAEQEIPLRAILCYRNTSSICSNEGLIFKLKRGKEACALDTVGWVQRHRKMLRHCPSKRK", "note": "Protocols differ between the studies behind these lines. Numbers after ± are the reported error.", "UniProt P45481, sequence (whole entry, looked up)": "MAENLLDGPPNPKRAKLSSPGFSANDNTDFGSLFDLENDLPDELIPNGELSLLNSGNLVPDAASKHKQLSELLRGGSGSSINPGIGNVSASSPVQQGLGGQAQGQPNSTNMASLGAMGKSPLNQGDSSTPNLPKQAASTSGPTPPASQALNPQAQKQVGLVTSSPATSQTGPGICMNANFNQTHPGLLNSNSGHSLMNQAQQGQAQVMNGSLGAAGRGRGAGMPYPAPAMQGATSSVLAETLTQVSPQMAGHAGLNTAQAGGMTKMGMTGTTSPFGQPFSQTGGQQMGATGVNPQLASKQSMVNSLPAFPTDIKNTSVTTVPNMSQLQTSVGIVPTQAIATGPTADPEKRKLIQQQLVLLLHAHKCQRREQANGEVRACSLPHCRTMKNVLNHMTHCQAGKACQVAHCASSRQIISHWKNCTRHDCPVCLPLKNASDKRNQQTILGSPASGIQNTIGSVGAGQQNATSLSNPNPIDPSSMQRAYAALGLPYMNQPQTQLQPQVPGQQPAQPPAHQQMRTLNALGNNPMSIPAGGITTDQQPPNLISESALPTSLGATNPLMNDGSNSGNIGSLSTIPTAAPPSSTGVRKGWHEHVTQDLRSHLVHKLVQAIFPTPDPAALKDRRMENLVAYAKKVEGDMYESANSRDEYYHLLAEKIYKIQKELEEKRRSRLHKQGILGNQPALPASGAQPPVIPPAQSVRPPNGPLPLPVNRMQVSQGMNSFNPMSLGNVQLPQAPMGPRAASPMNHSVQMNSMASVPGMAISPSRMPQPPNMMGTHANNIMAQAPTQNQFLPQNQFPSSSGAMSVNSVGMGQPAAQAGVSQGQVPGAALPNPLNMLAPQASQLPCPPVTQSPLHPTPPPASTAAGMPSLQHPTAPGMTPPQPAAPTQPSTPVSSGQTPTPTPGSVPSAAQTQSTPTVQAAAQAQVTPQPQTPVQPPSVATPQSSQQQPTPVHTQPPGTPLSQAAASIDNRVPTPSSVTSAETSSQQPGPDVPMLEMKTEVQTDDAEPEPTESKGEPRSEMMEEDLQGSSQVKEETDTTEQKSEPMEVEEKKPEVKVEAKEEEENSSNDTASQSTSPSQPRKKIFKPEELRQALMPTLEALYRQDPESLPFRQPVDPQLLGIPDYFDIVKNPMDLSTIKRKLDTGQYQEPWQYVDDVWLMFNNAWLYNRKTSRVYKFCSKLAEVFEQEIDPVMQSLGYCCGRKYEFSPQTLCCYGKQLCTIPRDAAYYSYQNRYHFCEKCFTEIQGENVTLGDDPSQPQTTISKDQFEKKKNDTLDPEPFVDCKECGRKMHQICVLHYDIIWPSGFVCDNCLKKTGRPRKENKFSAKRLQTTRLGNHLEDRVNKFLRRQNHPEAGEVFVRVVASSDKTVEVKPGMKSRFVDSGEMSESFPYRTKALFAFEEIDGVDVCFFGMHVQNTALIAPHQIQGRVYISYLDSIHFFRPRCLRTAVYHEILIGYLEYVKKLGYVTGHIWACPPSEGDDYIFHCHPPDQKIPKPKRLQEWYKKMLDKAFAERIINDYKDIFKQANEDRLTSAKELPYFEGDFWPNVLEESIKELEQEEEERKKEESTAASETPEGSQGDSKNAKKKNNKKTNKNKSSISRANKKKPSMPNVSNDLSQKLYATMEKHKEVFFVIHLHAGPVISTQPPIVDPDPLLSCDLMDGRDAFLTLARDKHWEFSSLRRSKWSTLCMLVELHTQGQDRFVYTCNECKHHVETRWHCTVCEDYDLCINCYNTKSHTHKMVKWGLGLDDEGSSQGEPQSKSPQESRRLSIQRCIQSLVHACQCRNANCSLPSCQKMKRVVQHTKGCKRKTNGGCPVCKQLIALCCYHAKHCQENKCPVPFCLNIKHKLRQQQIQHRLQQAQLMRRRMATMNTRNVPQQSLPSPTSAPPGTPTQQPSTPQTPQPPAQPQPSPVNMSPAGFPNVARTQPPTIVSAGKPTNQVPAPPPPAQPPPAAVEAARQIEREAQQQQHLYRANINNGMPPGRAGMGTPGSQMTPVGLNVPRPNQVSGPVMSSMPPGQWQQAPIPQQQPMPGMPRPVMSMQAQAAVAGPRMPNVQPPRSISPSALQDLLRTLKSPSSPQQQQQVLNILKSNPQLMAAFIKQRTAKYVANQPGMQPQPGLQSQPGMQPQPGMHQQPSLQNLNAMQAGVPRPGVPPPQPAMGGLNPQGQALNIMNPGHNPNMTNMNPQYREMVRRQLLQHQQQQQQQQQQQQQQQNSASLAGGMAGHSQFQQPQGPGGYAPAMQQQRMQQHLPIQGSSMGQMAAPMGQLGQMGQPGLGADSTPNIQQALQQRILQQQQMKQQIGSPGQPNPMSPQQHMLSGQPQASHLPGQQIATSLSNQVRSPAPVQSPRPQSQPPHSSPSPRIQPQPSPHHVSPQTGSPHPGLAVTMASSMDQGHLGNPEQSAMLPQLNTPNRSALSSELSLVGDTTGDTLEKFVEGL", "UniProt Q99967, sequence (whole entry, looked up)": "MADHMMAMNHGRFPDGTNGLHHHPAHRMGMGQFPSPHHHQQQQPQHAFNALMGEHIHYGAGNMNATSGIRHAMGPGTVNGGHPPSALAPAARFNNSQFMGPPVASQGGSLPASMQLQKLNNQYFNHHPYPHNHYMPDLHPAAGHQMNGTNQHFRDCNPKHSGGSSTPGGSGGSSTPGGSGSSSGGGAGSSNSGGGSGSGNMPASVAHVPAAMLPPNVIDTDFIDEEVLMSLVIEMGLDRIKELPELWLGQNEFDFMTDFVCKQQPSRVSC", "UniProt Q23985, sequence (whole entry, looked up)": "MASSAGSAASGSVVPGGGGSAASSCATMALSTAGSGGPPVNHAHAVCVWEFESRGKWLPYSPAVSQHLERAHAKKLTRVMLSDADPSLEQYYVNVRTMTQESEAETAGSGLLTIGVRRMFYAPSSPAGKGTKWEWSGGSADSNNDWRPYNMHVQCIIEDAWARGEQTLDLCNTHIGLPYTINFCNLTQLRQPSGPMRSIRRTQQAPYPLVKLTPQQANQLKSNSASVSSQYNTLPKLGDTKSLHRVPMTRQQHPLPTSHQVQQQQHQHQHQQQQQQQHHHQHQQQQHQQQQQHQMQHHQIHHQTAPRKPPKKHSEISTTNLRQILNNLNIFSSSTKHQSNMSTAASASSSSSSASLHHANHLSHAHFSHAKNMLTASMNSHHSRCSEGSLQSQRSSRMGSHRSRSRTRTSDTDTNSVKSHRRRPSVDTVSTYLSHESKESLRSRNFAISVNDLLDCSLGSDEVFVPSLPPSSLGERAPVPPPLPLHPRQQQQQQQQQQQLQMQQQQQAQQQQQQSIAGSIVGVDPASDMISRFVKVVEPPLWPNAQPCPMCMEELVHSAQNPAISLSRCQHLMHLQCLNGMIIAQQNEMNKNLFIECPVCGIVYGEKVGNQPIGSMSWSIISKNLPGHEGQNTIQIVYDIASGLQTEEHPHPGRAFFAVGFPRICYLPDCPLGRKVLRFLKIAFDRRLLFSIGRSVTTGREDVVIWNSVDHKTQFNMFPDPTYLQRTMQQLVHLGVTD", "UniProt P04692, sequence (whole entry, unmodified, looked up)": "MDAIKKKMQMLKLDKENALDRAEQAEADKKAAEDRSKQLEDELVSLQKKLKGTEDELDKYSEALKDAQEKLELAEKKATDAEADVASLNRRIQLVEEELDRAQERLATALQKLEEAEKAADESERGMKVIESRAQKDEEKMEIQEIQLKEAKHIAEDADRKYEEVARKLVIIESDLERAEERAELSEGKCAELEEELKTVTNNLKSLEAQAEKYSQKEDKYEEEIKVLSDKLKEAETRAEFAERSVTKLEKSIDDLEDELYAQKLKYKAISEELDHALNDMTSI", "UniProt O76064, sequence (whole entry, looked up)": "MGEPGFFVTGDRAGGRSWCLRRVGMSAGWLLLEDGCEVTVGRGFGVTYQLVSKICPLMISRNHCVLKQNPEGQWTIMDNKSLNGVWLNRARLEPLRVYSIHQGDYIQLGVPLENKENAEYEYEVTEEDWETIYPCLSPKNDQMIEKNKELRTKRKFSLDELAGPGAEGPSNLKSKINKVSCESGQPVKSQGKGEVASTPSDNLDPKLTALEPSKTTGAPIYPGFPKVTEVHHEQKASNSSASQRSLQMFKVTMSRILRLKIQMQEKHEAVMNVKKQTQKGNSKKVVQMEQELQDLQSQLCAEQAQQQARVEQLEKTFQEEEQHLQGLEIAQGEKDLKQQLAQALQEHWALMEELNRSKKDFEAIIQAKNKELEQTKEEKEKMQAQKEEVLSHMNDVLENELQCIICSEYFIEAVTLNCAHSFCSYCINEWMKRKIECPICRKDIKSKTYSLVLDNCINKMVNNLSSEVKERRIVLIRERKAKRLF", "UniProt P78324, sequence (whole entry, looked up)": "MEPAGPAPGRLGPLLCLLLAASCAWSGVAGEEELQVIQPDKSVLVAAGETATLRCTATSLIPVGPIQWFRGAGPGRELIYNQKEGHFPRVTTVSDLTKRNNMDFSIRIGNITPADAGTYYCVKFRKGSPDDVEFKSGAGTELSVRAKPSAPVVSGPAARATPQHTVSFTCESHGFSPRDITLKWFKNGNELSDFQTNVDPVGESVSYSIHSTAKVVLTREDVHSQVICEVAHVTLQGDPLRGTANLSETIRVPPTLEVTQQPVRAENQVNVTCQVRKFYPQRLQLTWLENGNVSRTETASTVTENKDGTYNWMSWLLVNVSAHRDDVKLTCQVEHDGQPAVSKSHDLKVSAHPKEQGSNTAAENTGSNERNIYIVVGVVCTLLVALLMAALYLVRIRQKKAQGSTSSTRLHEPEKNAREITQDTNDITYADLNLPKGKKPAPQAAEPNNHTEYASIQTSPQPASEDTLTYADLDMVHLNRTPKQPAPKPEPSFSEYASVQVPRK", "UniProt Q96ES7, sequence (whole entry, looked up)": "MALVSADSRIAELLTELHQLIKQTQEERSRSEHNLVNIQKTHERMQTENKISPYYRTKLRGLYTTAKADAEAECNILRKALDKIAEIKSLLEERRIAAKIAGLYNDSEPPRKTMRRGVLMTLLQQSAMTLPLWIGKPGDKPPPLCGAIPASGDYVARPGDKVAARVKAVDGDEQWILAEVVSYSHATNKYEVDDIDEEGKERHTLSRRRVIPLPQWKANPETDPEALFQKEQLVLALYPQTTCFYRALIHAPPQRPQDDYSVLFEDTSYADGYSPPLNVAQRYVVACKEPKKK"}
{"Substance": "pegcetacoplan", "system": "healthy human volunteers", "setting": "subcutaneous, after first daily dose, all dose groups", "measurement": "median Tmax", "result": "24 h"}
{"Substance": "fibrin fragment (Homo sapiens)", "target or system": "VLDLR repeats 1-8 (Homo sapiens, UniProt P98155)", "assay": "SPR", "measurement": "Kd", "result": "67 µM"}
{"Substance": "PYCARD CARD domain (Homo sapiens, UniProt Q9ULZ3)", "target or system": "itself", "assay": "NMR titration", "measurement": "Kd", "result": "50 µM"}
{"Substance": "RQIKIWFQNKKWKWKK", "target or system": "Staphylococcus aureus", "system": "peptide, methicillin-resistant", "measurement": "MIC", "result": "1000 µg/mL"}
{"Substance": "teicoplanin", "system": "human patients", "measurement": "total plasma clearance", "result": "0.333 mL/min/kg"}
{"Substance": "B1 (CCL1)", "target or system": "CCR8 W194A mutant", "assay": "IP accumulation, agonist", "measurement": "EC50", "result": "0.128 µM"}
{"Substance": "Notch ankyrin domain (Drosophila melanogaster, UniProt P07207)", "target or system": "Deltex tandem WWE domains (Drosophila melanogaster, UniProt Q23985)", "assay": "analytical ultracentrifugation", "measurement": "Kd", "result": "5 µM"}
{"Substance": "STFGYRRGLSKYESIDEDELLASLSAEELKELERELEDIE (Lmod2(2-41); sequence looked up)", "target or system": "Tropomyosin alpha-1 chain (Tpm1, Rattus norvegicus, UniProt P04692, K15N)", "assay": "CD thermal unfolding", "system": "peptide", "setting": "30 °C", "measurement": "Kd", "result": "2.31 ± 0.07 µM"}
{"Substance": "BRCA1 BRCT (Homo sapiens, UniProt P38398)", "target or system": "BACH1 phosphopeptide, phosphoserine (Homo sapiens, UniProt Q9BX63)", "assay": "ITC", "measurement": "Kd", "result": "0.43 µM"}
{"Substance": "CITED2 CTAD (Homo sapiens, UniProt Q99967)", "target or system": "CBP TAZ1 domain", "assay": "fluorescence anisotropy competition", "measurement": "Kd", "result": "0.0002 µM"}
{"Substance": "BTN2A1 fragment (Homo sapiens)", "target or system": "BTN3A1 fragment, HMBPP-bound (Homo sapiens)", "assay": "ITC", "measurement": "Kd", "result": "0.89 µM"}
{"Substance": "VLDLR fragment (Homo sapiens)", "target or system": "fibrinogen beta chain residues 15-64 (Homo sapiens, UniProt P02675)", "assay": "SPR", "measurement": "Kd", "result": "6.1 µM"}
{"Substance": "CITED2 activation domain (Homo sapiens, UniProt Q99967)", "target or system": "CREBBP TAZ1 domain (UniProt P45481)", "assay": "not stated", "measurement": "Kd", "result": "0.01 µM"}
{"Substance": "synGAP CC-PBM region (Rattus norvegicus, UniProt Q9QUH6)", "target or system": "DLG4 PDZ3-SH3-GK (Rattus norvegicus, UniProt P31016)", "assay": "ITC", "measurement": "Kd", "result": "0.14 µM"}
{"Substance": "IFFRRNKKMAVKVAINGFGRIGRLAFRQMFGRYIAKINPDNKKFKTMPSG", "target or system": "Pseudomonas aeruginosa", "system": "peptide, ATCC 15692", "measurement": "MIC", "result": "9 µM"}
{"Substance": "SIRPα IgV domain (Homo sapiens, UniProt P78324)", "target or system": "CD47 IgV domain (Homo sapiens, UniProt Q08722)", "assay": "SPR", "measurement": "Kd", "result": "1.5 µM"}
{"Substance": "HIF1A CTAD (Homo sapiens, UniProt Q16665)", "target or system": "CBP TAZ1 domain", "assay": "fluorescence anisotropy competition", "measurement": "Kd", "result": "0.9 µM"}
{"Substance": "SGF29 tandem Tudor domain (Homo sapiens, UniProt Q96ES7)", "target or system": "histone H3 peptide, K4me3 (UniProt P68431)", "assay": "ITC", "measurement": "Kd", "result": "13.8 µM"}
{"Substance": "RNF8 C-terminal region (Homo sapiens, UniProt O76064)", "target or system": "UBE2N (Homo sapiens, UniProt P61088)", "assay": "SPR", "measurement": "Kd", "result": "2 µM"}
{"note": "A few entries again:"}
{"Substance": "SIRPα IgV domain (Homo sapiens, UniProt P78324)", "target or system": "CD47 IgV domain (Homo sapiens, UniProt Q08722)", "assay": "SPR", "measurement": "Kd", "result": "1.5 µM"}
{"Substance": "HIF1A CTAD (Homo sapiens, UniProt Q16665)", "target or system": "CBP TAZ1 domain", "assay": "fluorescence anisotropy competition", "measurement": "Kd", "result": "0.9 µM"}
